Results pooled from the literature.
Numbered parts are unrelated; each lists some results of a single study. Positions count from the first letter of the parent shown.
UniProt P35367, sequence (whole entry, looked up): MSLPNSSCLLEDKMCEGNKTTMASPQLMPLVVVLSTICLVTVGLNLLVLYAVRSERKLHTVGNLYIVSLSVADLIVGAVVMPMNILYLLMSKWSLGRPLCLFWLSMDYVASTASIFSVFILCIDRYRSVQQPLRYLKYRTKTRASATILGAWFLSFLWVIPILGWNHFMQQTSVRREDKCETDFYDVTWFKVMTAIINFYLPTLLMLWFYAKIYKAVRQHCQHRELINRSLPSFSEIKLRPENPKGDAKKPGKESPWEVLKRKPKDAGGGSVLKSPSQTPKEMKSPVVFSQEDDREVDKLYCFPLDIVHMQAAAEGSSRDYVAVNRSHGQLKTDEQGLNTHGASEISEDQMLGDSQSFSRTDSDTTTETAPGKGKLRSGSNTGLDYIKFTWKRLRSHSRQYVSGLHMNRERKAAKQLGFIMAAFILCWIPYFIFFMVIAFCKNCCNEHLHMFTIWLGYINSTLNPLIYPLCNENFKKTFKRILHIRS
UniProt P21917, sequence (whole entry, looked up): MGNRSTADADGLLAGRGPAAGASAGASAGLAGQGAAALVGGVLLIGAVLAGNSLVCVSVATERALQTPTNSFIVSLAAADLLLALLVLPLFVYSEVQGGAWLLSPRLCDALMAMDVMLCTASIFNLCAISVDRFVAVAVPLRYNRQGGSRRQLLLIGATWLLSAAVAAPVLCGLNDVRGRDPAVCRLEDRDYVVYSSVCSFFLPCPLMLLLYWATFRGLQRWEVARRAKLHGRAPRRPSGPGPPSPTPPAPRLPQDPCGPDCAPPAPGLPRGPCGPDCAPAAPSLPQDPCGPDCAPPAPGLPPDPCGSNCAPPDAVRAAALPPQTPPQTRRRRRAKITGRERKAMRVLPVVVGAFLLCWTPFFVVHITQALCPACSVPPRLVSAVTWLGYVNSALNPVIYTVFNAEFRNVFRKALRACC
UniProt P18825, sequence (whole entry, looked up): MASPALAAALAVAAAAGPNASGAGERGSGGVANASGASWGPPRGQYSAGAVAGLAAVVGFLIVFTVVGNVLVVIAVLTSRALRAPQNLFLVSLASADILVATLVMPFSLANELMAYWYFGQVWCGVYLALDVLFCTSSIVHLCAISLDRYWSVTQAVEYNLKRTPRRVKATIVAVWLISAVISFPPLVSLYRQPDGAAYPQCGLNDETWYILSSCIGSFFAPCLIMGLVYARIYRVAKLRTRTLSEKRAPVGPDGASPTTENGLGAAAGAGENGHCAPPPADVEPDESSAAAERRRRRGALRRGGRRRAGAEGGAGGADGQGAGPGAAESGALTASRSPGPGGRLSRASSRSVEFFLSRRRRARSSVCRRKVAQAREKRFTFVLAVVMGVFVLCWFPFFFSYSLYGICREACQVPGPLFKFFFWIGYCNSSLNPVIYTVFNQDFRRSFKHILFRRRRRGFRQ
UniProt P50406, sequence (whole entry, looked up): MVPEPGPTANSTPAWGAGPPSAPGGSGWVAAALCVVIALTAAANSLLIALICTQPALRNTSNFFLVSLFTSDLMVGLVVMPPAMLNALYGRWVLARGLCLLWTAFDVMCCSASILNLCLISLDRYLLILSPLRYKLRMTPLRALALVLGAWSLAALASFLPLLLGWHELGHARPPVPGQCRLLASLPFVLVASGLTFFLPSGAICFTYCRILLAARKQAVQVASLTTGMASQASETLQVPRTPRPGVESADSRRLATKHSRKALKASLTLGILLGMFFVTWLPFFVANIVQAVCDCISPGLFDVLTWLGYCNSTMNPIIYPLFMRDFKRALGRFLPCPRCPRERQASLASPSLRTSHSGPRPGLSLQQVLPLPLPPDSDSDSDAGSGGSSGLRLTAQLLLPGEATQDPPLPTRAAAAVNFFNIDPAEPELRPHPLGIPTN
UniProt P08913, sequence (whole entry, looked up): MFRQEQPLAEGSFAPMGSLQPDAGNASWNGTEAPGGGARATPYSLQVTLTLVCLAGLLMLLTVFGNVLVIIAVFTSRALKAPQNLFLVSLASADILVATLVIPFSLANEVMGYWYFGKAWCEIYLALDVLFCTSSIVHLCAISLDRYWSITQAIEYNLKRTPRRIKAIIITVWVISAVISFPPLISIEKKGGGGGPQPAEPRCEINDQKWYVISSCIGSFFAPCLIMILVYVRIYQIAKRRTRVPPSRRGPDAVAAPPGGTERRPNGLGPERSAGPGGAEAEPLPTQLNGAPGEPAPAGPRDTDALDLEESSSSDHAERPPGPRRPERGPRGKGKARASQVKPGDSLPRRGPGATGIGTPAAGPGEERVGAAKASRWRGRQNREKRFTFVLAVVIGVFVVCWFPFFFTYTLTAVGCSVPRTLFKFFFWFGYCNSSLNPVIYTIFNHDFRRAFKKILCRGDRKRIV
UniProt Q9H3N8, sequence (whole entry, looked up): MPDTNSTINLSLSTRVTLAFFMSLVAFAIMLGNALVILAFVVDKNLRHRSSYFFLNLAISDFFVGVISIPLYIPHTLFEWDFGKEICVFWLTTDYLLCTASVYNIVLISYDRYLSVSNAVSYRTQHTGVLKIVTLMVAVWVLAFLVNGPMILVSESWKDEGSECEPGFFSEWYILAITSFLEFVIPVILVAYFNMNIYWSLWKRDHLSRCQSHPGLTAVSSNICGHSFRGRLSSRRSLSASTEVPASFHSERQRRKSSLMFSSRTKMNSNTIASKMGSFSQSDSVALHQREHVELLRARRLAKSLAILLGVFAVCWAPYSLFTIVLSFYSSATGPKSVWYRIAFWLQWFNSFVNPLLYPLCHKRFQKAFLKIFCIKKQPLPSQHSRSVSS
UniProt Q5BJF2, sequence (whole entry, looked up): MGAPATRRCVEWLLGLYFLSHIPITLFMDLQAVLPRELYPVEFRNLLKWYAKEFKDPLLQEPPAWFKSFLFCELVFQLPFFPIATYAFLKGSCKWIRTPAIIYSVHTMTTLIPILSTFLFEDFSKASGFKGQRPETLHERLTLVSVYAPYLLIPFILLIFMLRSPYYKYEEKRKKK
UniProt P18089, sequence (whole entry, looked up): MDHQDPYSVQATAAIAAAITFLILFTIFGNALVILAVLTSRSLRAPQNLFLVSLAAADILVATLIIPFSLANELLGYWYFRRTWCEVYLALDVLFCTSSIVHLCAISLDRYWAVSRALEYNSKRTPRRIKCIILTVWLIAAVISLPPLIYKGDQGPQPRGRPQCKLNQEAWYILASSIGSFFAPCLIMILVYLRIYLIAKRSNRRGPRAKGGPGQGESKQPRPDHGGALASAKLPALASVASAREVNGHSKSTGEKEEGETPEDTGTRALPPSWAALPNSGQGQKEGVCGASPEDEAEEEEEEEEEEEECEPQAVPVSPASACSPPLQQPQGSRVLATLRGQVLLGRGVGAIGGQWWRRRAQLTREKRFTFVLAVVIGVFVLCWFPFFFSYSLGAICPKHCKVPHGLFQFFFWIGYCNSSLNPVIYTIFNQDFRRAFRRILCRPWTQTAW

Sample 1
Target: Mast/stem cell growth factor receptor Kit (KIT, Homo sapiens, UniProt P10721)
UniProt P10721, sequence (whole entry, looked up): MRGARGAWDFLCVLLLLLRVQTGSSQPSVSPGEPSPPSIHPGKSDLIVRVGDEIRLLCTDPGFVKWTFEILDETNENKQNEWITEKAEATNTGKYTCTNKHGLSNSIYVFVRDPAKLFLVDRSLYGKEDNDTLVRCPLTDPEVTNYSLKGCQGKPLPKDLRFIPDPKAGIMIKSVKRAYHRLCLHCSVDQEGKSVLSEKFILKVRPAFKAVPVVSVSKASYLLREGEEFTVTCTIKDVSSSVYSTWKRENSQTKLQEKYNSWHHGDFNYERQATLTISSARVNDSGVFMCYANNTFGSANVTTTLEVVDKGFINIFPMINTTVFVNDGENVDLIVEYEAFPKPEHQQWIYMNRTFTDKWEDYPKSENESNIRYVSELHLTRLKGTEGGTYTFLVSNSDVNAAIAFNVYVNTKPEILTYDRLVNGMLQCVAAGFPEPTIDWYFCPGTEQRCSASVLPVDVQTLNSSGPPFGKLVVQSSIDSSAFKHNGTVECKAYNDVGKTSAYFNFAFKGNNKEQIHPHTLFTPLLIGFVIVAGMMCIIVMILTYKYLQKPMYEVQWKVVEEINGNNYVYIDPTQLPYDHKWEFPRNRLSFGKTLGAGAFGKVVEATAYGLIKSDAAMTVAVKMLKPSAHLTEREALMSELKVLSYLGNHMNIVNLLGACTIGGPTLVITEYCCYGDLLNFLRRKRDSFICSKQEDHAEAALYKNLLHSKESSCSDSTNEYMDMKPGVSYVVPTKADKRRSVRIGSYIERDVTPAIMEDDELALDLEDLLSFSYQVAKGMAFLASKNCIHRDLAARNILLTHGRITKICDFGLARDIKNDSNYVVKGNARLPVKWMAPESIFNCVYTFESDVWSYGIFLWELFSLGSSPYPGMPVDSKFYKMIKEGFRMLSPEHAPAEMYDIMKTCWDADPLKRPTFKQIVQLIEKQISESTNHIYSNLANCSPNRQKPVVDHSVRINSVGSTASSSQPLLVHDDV
Observed: enzyme activity
Action: inhibitor
Tested at: 0.5 µM
Reference: control
SMILES	remaining activity [%]
C#Cc1cccc(Nc2ncnc3cc(OCCOC)c(OCCOC)cc23)c1	98.1
COc1ccc(C(=O)Nc2sc3c(c2C(N)=O)CCCC3)cc1OC	46.2
COc1ccc(CNC(=O)Nc2ncc([N+](=O)[O-])s2)cc1	103
Cn1sc(=O)n(Cc2ccccc2)c1=O	101
O=C1NC(=O)C(c2cn(CCCO)c3ncccc23)=C1c1cnccn1	93
OCC(O)CCON=C1C(c2c(O)[nH]c3ccccc23)=Nc2ccccc21 (centres unmarked)	44.8
CN(C)c1ccc(C=C2C(=O)Nc3ccccc32)cc1	45.6
COc1cc2nccc(Oc3ccc(NC(=S)NC(=O)c4ccccc4C)cc3)c2cc1OC	34.5
O=C(CCCc1ccc(-c2ccccc2F)cc1)Nc1ccc(O)cc1	96.3
O=c1c2ccccc2[nH]c(=S)n1CCN1CCC(=C(c2ccc(F)cc2)c2ccc(F)cc2)CC1	103
CO[C@H]1C[C@@H]2CC[C@@H](C)[C@@](O)(O2)C(=O)C(=O)N2CCCC[C@H]2C(=O)O[C@H]([C@H](C)C[C@@H]2CC[C@@H](O)[C@H](OC)C2)CC(=O)[C@H](C)/C=C(\C)[C@@H](O)[C@@H](OC)C(=O)[C@H](C)C[C@H](C)/C=C/C=C/C=C/1C	95.7
O=C(O)c1ccc2c3c1cccc3c(=O)n1c3ccccc3nc21	93.5

Sample 2
Target: Interferon regulatory factor 7, full length, phosphomimetic (IRF7, Homo sapiens, UniProt Q92985, residues 1-503, S101K/S471D/S472D/S475D/S476D/S477D/S483D/S484D/S487D)
UniProt Q92985, sequence (whole entry, unmodified, looked up): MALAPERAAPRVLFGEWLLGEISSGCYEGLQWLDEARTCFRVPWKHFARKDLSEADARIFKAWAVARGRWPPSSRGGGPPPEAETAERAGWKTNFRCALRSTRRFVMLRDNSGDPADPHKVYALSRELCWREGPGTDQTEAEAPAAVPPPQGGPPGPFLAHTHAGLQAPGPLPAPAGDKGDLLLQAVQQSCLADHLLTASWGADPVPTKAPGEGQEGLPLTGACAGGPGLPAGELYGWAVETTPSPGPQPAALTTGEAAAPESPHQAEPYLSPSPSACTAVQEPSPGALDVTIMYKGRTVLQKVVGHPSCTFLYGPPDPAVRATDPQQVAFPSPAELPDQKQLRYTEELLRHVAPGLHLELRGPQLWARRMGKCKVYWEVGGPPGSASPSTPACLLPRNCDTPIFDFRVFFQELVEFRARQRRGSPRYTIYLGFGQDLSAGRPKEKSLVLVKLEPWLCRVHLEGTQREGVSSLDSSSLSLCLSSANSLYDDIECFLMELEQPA
Technique: protein-binding microarray
Molecule type: double-stranded DNA, one strand shown
Medium: in vitro
Tested at: 250 nM
Setting: 60-bp whole probe
Together with: salmon DNA 0.4 mg/ml
Reference: random background probes
Direction: higher = stronger binding
Constant ends, left off below: GCCTAGCAC … GTCTTGATTCGCTTGACGCTGCTG
Sequence	log fluorescence
TCATCTTTCCAACTCTGACTGTGCTAG	1.65 z-score
TTAGGTCTCCTTATCCTTTCGTGCTAG	0.422 z-score
TTAGATATCGGGTTTCGATTCGTGCTA	10.8 z-score
TAATATCTAAGATTCTAGCCGTGCTAG	-0.101 z-score
GACGGTTTCGACAATGGGGACGTGCTA	2.56 z-score
TCATGTATATATGTGTAACTGTGCTAG	-0.0184 z-score
TTTTTGTTGTTTTTTGGTTTGTGCTAG	1.67 z-score
GACGGTATCGGGTATCGAGACGTGCTA	0.57 z-score

Sample 3
Compound: C[C@@H](NC(=O)Nc1cc2[nH]ncc2c(CO)n1)c1ccccc1
Observed: cell-free assay
Tested at: 10 µM
target	inhibition
TMEM97 (Homo sapiens, UniProt Q5BJF2)	-10.1%
ADRA2B (Homo sapiens, UniProt P18089)	-1.5%
ADRB3 (Homo sapiens, UniProt P13945)	24.1%
DRD4 (Homo sapiens, UniProt P21917)	-1%
HRH4 (Homo sapiens, UniProt Q9H3N8)	35.3%
ADRA2C (Homo sapiens, UniProt P18825)	-8.07%
HRH1 (Homo sapiens, UniProt P35367)	-7.28%
ADRA2A (Homo sapiens, UniProt P08913)	9.2%
HTR6 (Homo sapiens, UniProt P50406)	8.67%
ADRB1 (Homo sapiens, UniProt P08588)	6.72%

Sample 4
Target: CCNB3, cyclin fold, Cln2 fusion (human)
Technique: yeast growth competition, sequencing
Medium: yeast
Setting: weak parent motif
Reference: not given
Direction: higher = stronger binding
Starting sequence: CDKN1C docking peptide (human); TSACRSLFGPVDH
Change	normalised enrichment score
D12A	0.436
T1A	0.612
F8L	0.106
R5K	0.442
S2A	0.672
G9A	0.887
P10A	0.417
R5A	0.135

Repeated from above (sample 1):
SMILES	remaining activity [%]
C#Cc1cccc(Nc2ncnc3cc(OCCOC)c(OCCOC)cc23)c1	98.1
COc1cc2nccc(Oc3ccc(NC(=S)NC(=O)c4ccccc4C)cc3)c2cc1OC	34.5
Cn1sc(=O)n(Cc2ccccc2)c1=O	101
OCC(O)CCON=C1C(c2c(O)[nH]c3ccccc23)=Nc2ccccc21 (centres unmarked)	44.8
O=C(CCCc1ccc(-c2ccccc2F)cc1)Nc1ccc(O)cc1	96.3
